Measured values from different studies.
Protocols differ between the studies behind these lines. Numbers after ± are the reported error.

Under “emission intensity increase”, COCCOCCOCCOC(=O)/C(C#N)=C/c1ccc2cc(N3CCOCC3)ccc2c1 is recorded as 5.1 fold (Amyloid-beta precursor protein, Aβ42 aggregates (APP, Homo sapiens, UniProt P05067); fluorescence; with: aggregated Abeta42 5 µM; relative to: free compound).
Under ATP-evoked current, O=C1C=CC(=O)N1c1ccccc1 is recorded as “no effect” (P2X purinoceptor 2 (P2rx2, Rattus norvegicus, UniProt P49653, V249C); covalent modifier, patch clamp; 0.5 mM, 2 min).
The binding stoichiometry of CC[C@H](C)[C@H](NC(=O)[C@H](CCCNC(=N)N)NC(=O)[C@H](CCCNC(=N)N)NC(=O)[C@H](C)NC(=O)[C@H](CC(C)C)NC(=O)[C@H](CCCNC(=N)N)NC(=O)[C@H](C)NC(=O)[C@H](Cc1c[nH]c2ccccc12)NC(=O)[C@H](CCCCN)NC(=O)[C@H](CCC(=O)O)NC(=O)[C@H](CCC(=O)O)NC(=O)[C@@H](NC(=O)[C@H](CO)NC(=O)[C@H](C)NC(C)=O)[C@@H](C)O)C(=O)N[C@@H](C)C(=O)NCC(N)=O is reported as 1 ± 0.1 (Histone chaperone ASF1A (Homo sapiens, UniProt Q9Y294); isothermal titration calorimetry; concentration not given, pH 7.5, 20 °C).
With [3H]C([3H])([3H])c1cnccc1CN1C[C@@H](c2cc(F)c(F)c(F)c2)CC1=O the total binding was 405 fmol/mg (Synaptic vesicle glycoprotein 2A (SV2A, Homo sapiens, UniProt Q7L0J3); radioligand binding, autoradiography; human, post-mortem frontal gray matter; 5 nM).
N=C(N)NCCC[C@@H](N)C(=O)NCC(=O)N[C@H](CCC(=O)O)C(=O)N[C@H](CCCNC(=N)N)C(=O)N1CCC[C@@H]1C(=O)N1CCC[C@@H]1C(=O)N[C@H](CCCNC(=N)N)C(N)=O — result for “binding free energy ΔG”: -10 kcal/mol (Neuropilin-1 (NRP1, Homo sapiens, UniProt O14786); SPR).
C#Cc1ccc(O[C@@H]2O[C@H](CO)[C@H](O)[C@H](O)[C@H]2O)cc1 gave a ΔG of -7 ± 0.1 kcal/mol (PA-I galactophilic lectin (lecA, Pseudomonas aeruginosa, UniProt Q05097); ITC; 5% DMSO).
For O=C(O)c1ccc(/C=C2\SC(=S)N(Cc3cccc(C(F)(F)F)c3)C2=O)cc1, ATPase activity read “no effect” (RIGI (Homo sapiens, UniProt O95786); inhibitor; 1 µM).
For N#C/C(=C\c1ccc(O)c(O)c1)C(=O)c1ccc(O)c(O)c1, [3H]ryanodine binding read “inhibited” (RYR1 (Sus scrofa, UniProt P16960); inhibitor; skeletal SR vesicles; concentration not given, with: Ca2+ 30 µM).
For CC1=[N+]2N=C(c3ccccc3)[O][Pd-2]2([Cl])[O+]=C2Oc3ccccc3C=C21 (stereo not shown), the fluorescence quenching was 61.5% (yeast tRNA; ethidium bromide displacement).
The Ki ratio of CC(=O)N[C@H]1NC[C@H](C(=O)O)[C@H](O)[C@@H]1O is reported as 2.5 fold (Sialidase-2 (Homo sapiens, UniProt Q9Y3R4); pH 6.0; relative to: compound over DANA).

Some of these lines once more:
The binding stoichiometry of CC[C@H](C)[C@H](NC(=O)[C@H](CCCNC(=N)N)NC(=O)[C@H](CCCNC(=N)N)NC(=O)[C@H](C)NC(=O)[C@H](CC(C)C)NC(=O)[C@H](CCCNC(=N)N)NC(=O)[C@H](C)NC(=O)[C@H](Cc1c[nH]c2ccccc12)NC(=O)[C@H](CCCCN)NC(=O)[C@H](CCC(=O)O)NC(=O)[C@H](CCC(=O)O)NC(=O)[C@@H](NC(=O)[C@H](CO)NC(=O)[C@H](C)NC(C)=O)[C@@H](C)O)C(=O)N[C@@H](C)C(=O)NCC(N)=O is reported as 1 ± 0.1 (Histone chaperone ASF1A (Homo sapiens, UniProt Q9Y294); isothermal titration calorimetry; concentration not given, pH 7.5, 20 °C).
